Assay results pooled from the literature.
Each line is one published result; not all experiments were run side by side. Several values in a cell are separate wells, animals, samples, runs or records. ± gives the spread as reported.
ribH: 6,7-dimethyl-8-ribityllumazine synthase (ribH, Mycobacterium tuberculosis, UniProt P9WHE9)
Oprk1: Kappa-type opioid receptor (Oprk1, Mus musculus, UniProt P33534)
HTR2C: 5-hydroxytryptamine receptor 2C (HTR2C, Homo sapiens, UniProt P28335)
SLC6A4: Sodium-dependent serotonin transporter (SLC6A4, Homo sapiens, UniProt P31645)

| Compound | target | assay | setting | Ki |
| --- | --- | --- | --- | --- |
| CCC(=O)Nc1c(SC[C@H](O)[C@H](O)[C@H](O)CO)[nH]c(=O)[nH]c1=O | ribH | inhibitor | pH 7.0, added: substrate 1 varied, other substrate 2 constant | 128 ± 31 µM |
| O=C(N[C@@H]1CC[C@@]2(O)[C@H]3Cc4cccc5c4[C@@]2(CCN3CC2CC2)[C@H]1O5)c1ccnc(Br)c1 | Oprk1 | ligand displacement, radioligand | cell membranes | 0.00744 µM |
| CCCOP(=O)(O)C(C)=O | Pyruvate dehydrogenase E1 (Sus scrofa, UniProt F1SGH5+P29804) | enzyme activity, inhibitor, NADH formation |  | 62 ± 8 µM |
| CCN(C(=O)[C@@H]1C=C2c3cccc4[nH]cc(c34)C[C@H]2N(C)C1)C1CC1 | ADRB1 (Homo sapiens, UniProt P08588) |  |  | > 10 µM |
| O=C(N[C@@H]1CC[C@@]2(O)[C@H]3Cc4cccc5c4[C@@]2(CCN3CC2CC2)[C@H]1O5)c1ccnc(Cl)c1 | Oprk1 | ligand displacement, radioligand | cell membranes | 0.0105 µM |
| NC(=O)c1cccnc1 | Halyomorpha halys Nan-Iav Y325A | [3H]-AP competition binding |  | > 10000 µM |
| COc1cc(C(=O)N[C@@H]2CC[C@@]3(O)[C@H]4Cc5cccc6c5[C@@]3(CCN4CC3CC3)[C@H]2O6)ccn1 | Oprk1 | ligand displacement, radioligand | cell membranes | 0.0869 µM |
| COc1cc(CCNCc2ccccc2OC)c(OC)cc1C | HTR2C | ligand displacement, radioligand |  | 0.00069 µM |
| CNC(C)C(=O)c1cccc(C)c1 (stereo not shown) | SLC6A4 | ligand displacement, radioligand | cell membranes | 7.9 µM |
| COc1cc([N+](=O)[O-])c(OC)cc1CCNCc1ccccc1OC | HTR2C | ligand displacement, radioligand |  | ~0.001 µM and 0.00106 µM |
| O=C(c1cccc2ccccc12)c1cn(CCCCCF)c2ccccc12 | Tspo (Rattus norvegicus, UniProt P16257) | binding |  | 3.29 µM |
| O=c1[nH]c(/C=C/c2cccnc2)c([N+](=O)[O-])c(=O)[nH]1 | ribH | enzyme activity, inhibitor | pH 7.0 | 26 ± 11 µM |
| CNC(C)Cc1ccc2c(c1)OCO2 (stereo not shown) | SLC6A4 | ligand displacement, radioligand | cell membranes | 17.5 µM |
| N#Cc1cc(C(=O)N[C@@H]2CC[C@@]3(O)[C@H]4Cc5cccc6c5[C@@]3(CCN4CC3CC3)[C@H]2O6)ccn1 | Oprk1 | ligand displacement, radioligand | cell membranes | 0.00613 µM |
| CCCC(C(=O)c1ccc2c(c1)OCO2)N(C)C (stereo not shown) | SLC6A4 | ligand displacement, radioligand | cell membranes | 2.27 µM |
| COc1ccc(OC)c(CCNCc2ccccc2OC)c1 | HTR2C | ligand displacement, radioligand |  | 0.0164 µM and 0.016 to 0.019 µM |

A few entries again:
| Compound | target | assay | setting | Ki |
| --- | --- | --- | --- | --- |
| COc1ccc(OC)c(CCNCc2ccccc2OC)c1 | HTR2C | ligand displacement, radioligand |  | 0.0164 µM and 0.016 to 0.019 µM |
